# Experimental data pooled from the literature.
# Lines come from different studies, so protocols differ. ± gives the spread as reported.
Structure (SMILES),tested on,test,system,setting,how to read,measurement,value
CCCCCC(=O)NCCCC[C@H](NC(=O)CCCCC)C(=O)N[C@@H](CCCCNC(=O)CCCCC)C(=O)NCC(=O)NCC(=O)NCC(=O)N[C@@H](CS)C(=O)N[C@@H](CCCNC(=N)N)C(=O)N[C@@H](CCCCN)C(=O)N1CCC[C@H]1C(=O)N[C@@H](CS)C(=O)N[C@@H](CCCNC(=N)N)C(=O)N[C@@H](CCCCN)C(=O)N1CCC[C@H]1C(N)=O,Candida albicans,broth microdilution,"fluconazole-resistant 56214, RPMI-1640","48 h, 30 °C",,MIC,16 µM
CC[C@H](C)[C@H](NC(=O)[C@H](C)NC(=O)[C@@H](NC(=O)[C@H](CC(=O)O)NC(=O)[C@H](CCCCN)NC(=O)[C@H](CO)NC(=O)[C@@H](NC(=O)[C@H](CC(N)=O)NC(=O)[C@H](C)NC(=O)[C@@H](NC(=O)[C@H](CCC(=O)O)NC(=O)[C@H](CCCCN)NC(=O)[C@@H](NC(=O)[C@@H](NC(=O)[C@H](Cc1c[nH]cn1)NC(=O)[C@H](CCCCN)NC(=O)[C@@H](NC(=O)[C@H](CCCCN)NC(=O)[C@H](CCCCN)NC(=O)[C@@H](NC(=O)[C@H](CC(C)C)NC(=O)[C@H](CCCCN)NC(=O)[C@H](CC(N)=O)NC(=O)[C@H](Cc1ccccc1)NC(=O)[C@H](CCCNC(=N)N)NC(=O)[C@H](CCCCN)NC(=O)[C@H](CCCNC(=N)N)NC(=O)[C@H](Cc1ccccc1)NC(=O)CN)C(C)C)C(C)C)[C@@H](C)O)[C@@H](C)CC)[C@@H](C)O)C(C)C)C(C)C)C(=O)N[C@H](C(=O)N[C@@H](C)C(=O)NCC(=O)N[C@@H](CO)C(=O)NCC(=O)N[C@H](C(=O)N[C@@H](C)C(=O)N[C@H](C(=O)NCC(=O)N[C@@H](C)C(=O)N[C@@H](C)C(=O)N[C@@H](CCSC)C(N)=O)C(C)C)C(C)C)C(C)C,Listeria monocytogenes,,"DSM 20600, CAMHB",,,MIC,> 1020 µg/mL
CC(=O)N[C@@H](CC(C)C)C(=O)N[C@H]1CSSC[C@@H](C(=O)N2CCC[C@H]2C(N)=O)NC(=O)[C@H](CCCCN)NC(=O)[C@H](C(C)C)NC(=O)[C@H](CCCCN)NC(=O)CNC(=O)[C@H](CC(C)C)NC(=O)[C@H](Cc2ccccc2)NC(=O)[C@H](CCCCN)NC(=O)[C@H](CC(C)C)NC(=O)[C@H](CCC(=O)O)NC(=O)[C@H](Cc2ccccc2)NC(=O)[C@H](CCCNC(=N)N)NC(=O)[C@H](CCCCN)NC(=O)[C@H](CC(C)C)NC(=O)[C@H](CC(=O)O)NC(=O)[C@@H]2CCCN2C(=O)[C@H](CCCCN)NC(=O)[C@H](C(C)C)NC(=O)[C@H](CCCCN)NC(=O)[C@H](CCCCN)NC(=O)[C@H](CCCCN)NC1=O,Aeromonas hydrophila,broth dilution,,24 h,,MIC,> 40 µM
c1ccc(CCNC2CCCc3c2[nH]c2ccc(C4CCCCC4)cc32)cc1 (stereo not drawn),Staphylococcus simulans,broth microdilution,22,,,MIC,2 µg/mL
O=c1n(CCNCCOS(=O)(=O)c2ccccc2)c(=O)n(S(=O)(=O)c2ccccc2)c(=O)n1S(=O)(=O)c1ccccc1,Alternaria solani,"microbial growth, broth dilution",,,,MIC,32 µg/mL
C[C@@H]1C(=O)O[C@@H](C)/C=C/C=C\[C@@H](C)[C@@H]2C=C[C@@H]3C[C@@]4(C)O[C@H]4[C@@H](C)[C@H]3[C@@H]2C(=O)C(Cl)(Cl)C1=O,Staphylococcus aureus,,MSSA clinical isolate,no listed resistance,,MIC,0.05 µg/mL
CSCC[C@H](NC=O)C(=O)N[C@@H](CCCNC(=N)N)C(=O)N[C@H](C(=O)NCC(=O)N[C@@H](CC(N)=O)C(=O)N[C@@H](C)C(=O)N[C@@H](CC(N)=O)C(=O)NCC(=O)N1CCN(c2cc3c(cc2F)c(=O)c(C(=O)O)cn3C2CC2)CC1)[C@@H](C)O,Salmonella enterica serovar Typhimurium,broth dilution,SL1344,,,MIC,8 µM
CCCCCCCCCCCC(=O)NCCCC[C@H](NC(=O)CCCCCCCCCCC)C(=O)N[C@@H](CCCCNC(=O)CCCCCCCCCCC)C(=O)NCC(=O)NCC(=O)NCC(=O)N[C@@H](CS)C(=O)N[C@@H](CCCNC(=N)N)C(=O)N[C@@H](CCCCN)C(=O)N1CCC[C@H]1C(=O)N[C@@H](CS)C(=O)N[C@@H](CCCNC(=N)N)C(=O)N[C@@H](CCCCN)C(=O)N1CCC[C@H]1C(N)=O,Candida albicans,broth microdilution,"17546, RPMI-1640","48 h, 30 °C",,MIC,> 128 µM
O=C1NC2(CC2)COc2ncc(F)cc2[C@H]2COCCN2c2ccn3ncc1c3n2,,,"Sprague-Dawley rat, male, blood","oral, 10 mg/kg/day, end of treatment, 4-week repeated-dose toxicity",relative to: leukocytes,neutrophils,22.6 ± 12.3%
[O-][N+]1=C(c2ccc(Cl)cc2)C2=NCCCN2c2ccccc21,Fusobacterium nucleatum,,,,,MIC,0.25 to 1 µg/mL
CC[C@H](C)[C@@H]1NC(=O)[C@@H]([C@@H](C)O)NC(=O)CNC(=O)[C@H](CC(=O)O)NC(=O)CNC(=O)[C@H](CC(=O)O)NC(=O)CNC(=O)[C@H]2CCCCN2C(=O)[C@@H](NC(=O)[C@H](CC(=O)O)NC(=O)/C=C/CCCCCCCCCC(C)C)CNC(=O)[C@@H]2CCCN2C1=O,Staphylococcus aureus,broth microdilution,"BR-VRSA strain 880, Mueller-Hinton broth, Mg2+ 10 mg/L","16 h, with: Ca2+ 2.5 mM",,MIC,4 µg/mL
C#CCNC(=O)[C@H]1NC(=O)[C@H]2NC(=O)[C@H](NC(=O)[C@@H]3NC(=O)[C@H](CC(N)=O)NC(=O)[C@H](NC(=O)[C@@H](CC(C)C)NC)[C@H](O)c4ccc(c(Cl)c4)Oc4cc3cc(c4O[C@@H]3O[C@H](CO)[C@@H](O)[C@H](O)[C@H]3O[C@H]3C[C@](C)(N)[C@H](O)[C@H](C)O3)Oc3ccc(cc3Cl)[C@H]2O)c2ccc(O)c(c2)-c2c(O)cc(O)cc21,Staphylococcus simulans,broth microdilution,"22, cation-adjusted Mueller-Hinton broth",,,MIC,0.168 µM
CCCCCCCC(=O)NCCCC[C@H](NC(=O)CCCCCCC)C(=O)N[C@@H](CCCCNC(=O)CCCCCCC)C(=O)NCC(=O)NCC(=O)NCC(=O)N[C@@H](CS)C(=O)N[C@@H](CCCNC(=N)N)C(=O)N[C@@H](CCCCN)C(=O)N1CCC[C@H]1C(N)=O,Candida albicans,broth microdilution,"56452, RPMI-1640","48 h, 30 °C",,MIC,> 128 µM
C[N+]1=C2C(c3ccccc3)=[N+]([O-])c3ccccc3N2CCC1,Fusobacterium nucleatum,,,,,MIC,2 to 16 µg/mL
CC[C@H](C)[C@H](NC(=O)[C@H](CCCNC(=N)N)NC(=O)[C@H](CO)NC(=O)[C@H](Cc1ccc(O)cc1)NC(=O)[C@@H](NC(=O)[C@@H](NC(=O)[C@H](C)NC(=O)CNC(=O)[C@H](CCCCN)NC(=O)[C@H](CCCCN)NC(=O)CCNC(=O)CCCCCNC(=O)[C@H](CCCNC(=N)N)NC(=O)CCCCCNC(=O)[C@H](CCCNC(=N)N)NC(=O)[C@H](CCCNC(=N)N)NC(=O)CCCCCNC(=O)[C@H](CCCNC(=N)N)NC(=O)[C@H](CCCNC(=N)N)NC(=O)CCCCCNC(=O)[C@H](CCCNC(=N)N)NC(=O)[C@H](CCCNC(=N)N)NC(=O)CCCCCNC(=O)[C@@H](N)CCCNC(=N)N)C(C)C)[C@@H](C)O)C(=O)N[C@@H](CO)C(=O)NCC(=O)N[C@@H](CCC(N)=O)C(=O)N[C@@H](Cc1ccc(O)cc1)C(=O)N[C@@H](CCCCN)C(=O)O,Escherichia coli,,"ATCC 25922, Mueller-Hinton broth",with: MgCl2 1 mM,,MIC,12 µM
CCCCCCCCCC(=O)NCCCC[C@H](NC(=O)CCCCCCCCC)C(=O)N[C@@H](CCCCNC(=O)CCCCCCCCC)C(=O)NCC(=O)NCC(=O)NCC(=O)N[C@@H](CS)C(=O)N[C@@H](CCCNC(=N)N)C(=O)N[C@@H](CCCCN)C(=O)N1CCC[C@H]1C(=O)N[C@@H](CS)C(=O)N[C@@H](CCCNC(=N)N)C(=O)N[C@@H](CCCCN)C(=O)N1CCC[C@H]1C(N)=O,Candida albicans,broth microdilution,"56452, RPMI-1640","48 h, 30 °C",,MIC,32 µM
CC[C@H](C)[C@H](NC(=O)[C@H](Cc1c[nH]c2ccccc12)NC(=O)[C@H](Cc1ccc(O)cc1)NC(=O)[C@H](CCCCN)NC(=O)[C@H](CC(C)C)NC(=O)[C@H](CO)NC(=O)[C@@H](N)Cc1ccccc1)C(=O)N[C@@H](CCCNC(=N)N)C(=O)N[C@@H](Cc1ccc(O)cc1)C(=O)N[C@@H](CCCCN)C(=O)N[C@@H](CCCNC(=N)N)C(=O)N[C@@H](CCC(N)=O)C(=O)NCC(=O)N[C@@H](C)C(=O)N[C@@H](C)C(=O)N[C@@H](CCCNC(=N)N)C(=O)N[C@@H](Cc1ccccc1)C(N)=O,Listeria monocytogenes,broth dilution,KCTC 13064,,,MIC,100 µM
CCCCCCCC(=O)NCCCC[C@H](NC(=O)CCCCCCC)C(=O)N[C@@H](CCCCNC(=O)CCCCCCC)C(=O)NCC(=O)NCC(=O)NCC(=O)N[C@@H](CS)C(=O)N[C@@H](CCCNC(=N)N)C(=O)N[C@@H](CCCCN)C(=O)N1CCC[C@H]1C(=O)N[C@@H](CS)C(=O)N[C@@H](CCCNC(=N)N)C(=O)N[C@@H](CCCCN)C(=O)N1CCC[C@H]1C(=O)N[C@@H](CS)C(=O)N[C@@H](CCCNC(=N)N)C(=O)N[C@@H](CCCCN)C(=O)N1CCC[C@H]1C(=O)N[C@@H](CS)C(=O)N[C@@H](CCCNC(=N)N)C(=O)N[C@@H](CCCCN)C(=O)N1CCC[C@H]1C(N)=O,Candida albicans,broth microdilution,"17546, RPMI-1640","48 h, 30 °C",,MIC,32 µM
CC(C)CCCCCCCCC/C=C/C(=O)N[C@@H](CC(=O)O)C(=O)N[C@H]1CNC(=O)[C@@H]2CCCN2C(=O)[C@H](C(C)C)NC(=O)[C@@H](CN)NC(=O)CNC(=O)[C@H](CC(=O)O)NC(=O)CNC(=O)[C@H](CC(=O)O)NC(=O)[C@H](CC(=O)O)NC(=O)[C@H]2CCCCN2C1=O,Staphylococcus simulans,broth microdilution,"22, Mueller-Hinton broth, Mg2+ 10 mg/L","16 h, 30 °C, with: Ca2+ 10 mM",,MIC,2 µg/mL
CCCCCCCC(=O)NCCCC[C@H](NC(=O)CCCCCCC)C(=O)N[C@@H](CCCCNC(=O)CCCCCCC)C(=O)NCC(=O)NCC(=O)NCC(=O)N[C@@H](CS)C(=O)N[C@@H](CCCNC(=N)N)C(=O)N[C@@H](CCCCN)C(=O)N1CCC[C@H]1C(=O)N[C@@H](CS)C(=O)N[C@@H](CCCNC(=N)N)C(=O)N[C@@H](CCCCN)C(=O)N1CCC[C@H]1C(=O)N[C@@H](CS)C(=O)N[C@@H](CCCNC(=N)N)C(=O)N[C@@H](CCCCN)C(=O)N1CCC[C@H]1C(N)=O,Candida albicans,broth microdilution,"fluconazole-resistant 56214, RPMI-1640","48 h, 30 °C",,MIC,8 µM
C=C(NC(=O)c1csc(-c2nc3c(cc2O)-c2nc(cs2)C(=O)NC(C(C)O)C(=O)NC(=C(C)OC)c2nc(cs2)C(=O)NC2c4nc(cs4)C(=O)NC(COC(=O)c4c5c6c(cccc6n4O)COC(=O)C(OC4CC(C)(O)C(N(C)C)C(C)O4)C2OC5)c2nc-3cs2)n1)C(N)=O (stereo not drawn),Staphylococcus aureus,,"MRSA strain 6, vancomycin-induced",20 generations,,MIC,0.0156 µg/mL

# For quick reference, copied from above:
Structure (SMILES),tested on,test,system,setting,how to read,measurement,value
C[C@@H]1C(=O)O[C@@H](C)/C=C/C=C\[C@@H](C)[C@@H]2C=C[C@@H]3C[C@@]4(C)O[C@H]4[C@@H](C)[C@H]3[C@@H]2C(=O)C(Cl)(Cl)C1=O,Staphylococcus aureus,,MSSA clinical isolate,no listed resistance,,MIC,0.05 µg/mL
CSCC[C@H](NC=O)C(=O)N[C@@H](CCCNC(=N)N)C(=O)N[C@H](C(=O)NCC(=O)N[C@@H](CC(N)=O)C(=O)N[C@@H](C)C(=O)N[C@@H](CC(N)=O)C(=O)NCC(=O)N1CCN(c2cc3c(cc2F)c(=O)c(C(=O)O)cn3C2CC2)CC1)[C@@H](C)O,Salmonella enterica serovar Typhimurium,broth dilution,SL1344,,,MIC,8 µM
